Assay results of several laboratories.
Parts stem from different laboratories: compare values within a part only. Positions count from the first letter of the parent shown.

Series 1
Target: Interferon regulatory factor 5, full length, phosphomimetic (IRF5, Homo sapiens, UniProt Q13568-2, residues 1-514, K96S/S451D/S453D/S456D/S462D)
Method: protein-binding microarray
Form: double-stranded DNA, one strand shown
Sample: in vitro
Tested at: 250 nM
Notes: 60-bp whole probe
With: salmon DNA 0.4 mg/ml
Reference: random background probes
Direction: higher = stronger binding
Constant ends, left off below: GCCTAGCAC … GTCTTGATTCGCTTGACGCTGCTG
Strand | log fluorescence [z-score]
GACGGACAGCTTATCCTGACGTGCTAG | -0.629
TCACTTCTCCTCTAGGTTACTGTGCTA | 0.538
TTAGGTATTGGTCTCGGTTAGTGCTAG | 1.5
TTAGGTTTCCTTCCCCTTTAGTGCTAG | 0.829
GACGGTATCGGTATCTGGACGTGCTAG | 5.2
TTAGAACTGGGACTGGGTTAGTGCTAG | -0.354
GACGATATCGGGTATGGAGACGTGCTA | 1.73
TTAGGTTGCGGGTATCGGTTAGTGCTA | 3.36
TTAGGTATCGTCTTTCGGTTAGTGCTA | 8.66
TTAGTTTTCCTTTCCCTTTAGTGCTAG | 3.15
GACGATTCCAGCTTCGAGACGTGCTAG | -0.186
TTAGAACTGAGTATCGATGAGTGCTAG | 4.66
CAAACACTAGTTTTCATTTTGTGCTAG | 1.82
TGAGGTTTCCTTTCCCTTTAGTGCTAG | 1.72
TTAGTTCTCCTTCTCCTTTAGTGCTAG | 0.839
TTAGGTCTCGGACTTGGTTAGTGCTAG | -0.334
GACGCTTCCAGTTTCGAGACGTGCTAG | 5.06
TTAGGTATCGACTTCCGGTTAGTGCTA | 4.25
TTAGGTATCCTACTGTTTTAGTGCTAG | 0.211

Series 2
Target: Histone acetyltransferase KAT6A, winged helix 2, GST fusion (KAT6A, Homo sapiens, UniProt Q92794, residues 85-181)
Method: protein binding microarray
Form: double-stranded DNA, one strand shown
Sample: in vitro
Tested at: not given
Notes: 8-mer, flanks averaged, mean of 2 arrays, mostly near background
Reference: not given
Direction: higher = stronger binding
Target sequence (chain): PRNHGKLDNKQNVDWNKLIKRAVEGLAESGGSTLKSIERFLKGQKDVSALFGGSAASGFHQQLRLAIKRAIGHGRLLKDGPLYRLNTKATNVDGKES
Strand | E-score
GGCACAAA | 0.024
CGGAGCCG | 0.251
CTTTAGCA | 0.157
AAAAAAGA | 0.125
AGATGTTA | -0.167
CAAATCTA | -0.0745
TCTCTAAA | -0.00817
ATTCCACC | 0.0421
GGGCAGAC | 0.0615
ATGTAGCA | 0.0591
ATTTACTC | 0.101
AAGAGACA | -0.0633
CGCTCTAA | 0.00928
AGATCTCC | -0.0359
GCTGATGA | -0.0226
CGACGCTC | 0.0417
ACGGGCTC | -0.0567
CTTGCACC | -0.0201
GACGTTAC | -0.0786
TCTAATAA | -0.0524
ATCAGGAC | 0.0165

Series 3
Target: CCND2, cyclin fold, Cln2 fusion (human)
Method: yeast growth competition, sequencing
Sample: yeast
Notes: weak parent motif
Reference: not given
Direction: higher = stronger binding
Starting sequence: DBF4 docking peptide (human); DDIVSKLVFDFVE; partner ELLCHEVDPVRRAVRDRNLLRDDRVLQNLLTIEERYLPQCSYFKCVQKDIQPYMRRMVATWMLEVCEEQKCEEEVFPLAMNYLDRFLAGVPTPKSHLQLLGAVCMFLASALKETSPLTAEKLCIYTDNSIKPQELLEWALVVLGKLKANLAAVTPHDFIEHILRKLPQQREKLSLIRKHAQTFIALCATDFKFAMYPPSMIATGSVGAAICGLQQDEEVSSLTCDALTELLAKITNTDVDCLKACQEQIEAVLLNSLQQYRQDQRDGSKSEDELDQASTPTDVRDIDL
Variant | normalised enrichment score
DDAVSKLVFDFVE [I3A] | 0.144
DDIVSKLAFDFVE [V8A] | -0.137
DDIASKLVFDFVE [V4A] | 0.149
DAIVSKLVFDFVE [D2A] | 0.0376
DDIVSKAVFDFVE [L7A] | -0.124
ADIVSKLVFDFVE [D1A] | -0.0927

Series 4
Target: RNA binding protein fox-1 homolog 2, RRM domain, GST-SBP tag (RBFOX2, Homo sapiens, UniProt O43251-10, residues 100-194)
Method: RNA Bind-n-Seq
Form: RNA
Sample: in vitro
Tested at: 365 nM
Notes: natural RNA segment, single round, ends assumed
Reference: no-protein control
Direction: higher = stronger binding
Constant ends, left off below: GGGAGUUCUACAGUCCGACGAUC … UGGAAUUCUCGGGUGCCAA
Target sequence (chain): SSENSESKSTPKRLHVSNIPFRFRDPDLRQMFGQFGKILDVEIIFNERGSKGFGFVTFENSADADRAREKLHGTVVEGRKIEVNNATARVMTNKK
Strand | RBNS enrichment (R)
AAAACCAGUAAUUCAUUUACUCUUGCCCAAAACUAUACACUGUAUUUCUGUUAUAGUAACAAAAUAGAGUUAUGUAGAAUUGUAUGGAACUCAAAUUUAAACCAUGCUUU | 0.327
UUGCUGAGUGCUGGUGCAGGCUUUAUGCUUUCCACGUGAAUUAAAUCAAAUGUGAAGUUGAUCCAGAGAGAGCCUAGGUGACUGGGGAGCCAUUGAGUAGGGAAUUGUAU | 0.799
GAAUUUAGGAGUGAUGUGUGACAUUUCUGACAUGGAGUUACCAUCCCCACAUGUAUCACAUACUGUCAUAUUCCCACAUGUAUCACACAUGUAUUGUAAAAUUUUGUAGU | 1.14
UUUGCCUUCAAAAAUGUGCUGCCUAGAAACAGACCUGCAUUCAACCAACUGUAAUGCAGGAUUGGACCAUGAAUGAUAUGCUAGAAUAGAAGAAAGAGAAGUGUUUUUUU | 0.528
CUCUUUCUCUCUGUUUUUAAAAUAAUCUAAAGAAAGCACAUUUUACCAUUGCUGUUGGGAGGAAGCAGAGGCAGAUGGGAAAGCAGAGAGAGGAGCGCGCUUCCUUUCCU | 0.266
AACACCAGCUGCUAUCAAGCAAGCUUAUAUCAUGUAAAUUAUAUGAAUUAGGAGAUGUUUUGGUAAUUAUUUCAUAUAUUGUUGUUUAUUGAGAAAAGGUUGUAGGAUGU | 0.706
GUGUGCGUGUGUUUUGCUCAUUUCUUUAGGGAACUUGGGAGUCGGGGUUGGAGGUGCUGGGCAAUGGAACUUCAAAUUCAAUGUCGCCCAGCAGUGAGGGGAGUCGGGAG | 1.1
CGUUGGAAAUGUGUGCUUUUUAGUGUUUACUAAAGUGAUAAGAAAAUAAAGCAUUCAAUACACUAUAGAUUCCAAAACAUAACAUUGCACCAAAUAGAAAUGUAUAUUUU | 0.686

Series 5
Target: Sal-like protein 4, full length isoform A (SALL4, Homo sapiens, UniProt Q9UJQ4, residues 1-1053)
Chain of UniProt Q9UJQ4 (whole entry, looked up): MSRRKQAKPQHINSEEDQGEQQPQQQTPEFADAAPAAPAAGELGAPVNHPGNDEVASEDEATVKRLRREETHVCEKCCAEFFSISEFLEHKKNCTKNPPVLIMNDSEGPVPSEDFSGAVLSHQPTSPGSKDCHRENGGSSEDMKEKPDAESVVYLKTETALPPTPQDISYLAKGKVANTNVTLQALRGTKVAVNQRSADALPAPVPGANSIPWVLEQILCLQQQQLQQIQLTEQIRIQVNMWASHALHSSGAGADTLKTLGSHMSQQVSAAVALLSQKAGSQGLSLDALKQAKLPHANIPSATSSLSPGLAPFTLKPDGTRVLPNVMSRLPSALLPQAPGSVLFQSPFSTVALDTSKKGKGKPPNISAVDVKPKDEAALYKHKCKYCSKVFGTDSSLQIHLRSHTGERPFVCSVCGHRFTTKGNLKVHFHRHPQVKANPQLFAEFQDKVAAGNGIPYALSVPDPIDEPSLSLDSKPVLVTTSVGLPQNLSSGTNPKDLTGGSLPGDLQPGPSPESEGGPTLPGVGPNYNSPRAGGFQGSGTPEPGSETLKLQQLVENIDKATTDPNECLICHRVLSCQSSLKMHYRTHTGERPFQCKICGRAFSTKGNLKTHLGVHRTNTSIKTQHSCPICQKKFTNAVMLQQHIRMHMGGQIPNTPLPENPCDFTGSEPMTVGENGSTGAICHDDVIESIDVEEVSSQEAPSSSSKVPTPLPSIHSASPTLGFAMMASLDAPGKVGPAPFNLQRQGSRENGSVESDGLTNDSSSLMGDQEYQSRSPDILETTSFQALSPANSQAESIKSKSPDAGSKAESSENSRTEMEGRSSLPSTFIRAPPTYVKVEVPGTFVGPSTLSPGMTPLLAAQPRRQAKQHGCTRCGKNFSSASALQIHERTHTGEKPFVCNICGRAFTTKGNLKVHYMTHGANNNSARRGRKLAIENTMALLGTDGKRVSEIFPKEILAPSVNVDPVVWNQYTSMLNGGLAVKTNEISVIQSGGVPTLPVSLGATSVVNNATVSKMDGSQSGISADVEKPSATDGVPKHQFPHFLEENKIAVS
Method: universal PBM
Form: double-stranded DNA, one strand shown
Sample: in vitro
Tested at: 600 nM
Notes: 8-mer, flanks averaged, mean of replicates
Direction: higher = stronger binding
Strand | E-score
CCGTAAAA | 0.123
AACGAAGC | -0.198
CTTCTCAA | 0.103
AAGCTGCG | -0.241
ATAGTGGA | 0.166
GAATACTC | 0.0979
AGCGTTGC | -0.235
CCAGCATA | -0.00679
CGATGTTA | 0.095
CTTAGATA | 0.217
ATTTTAGA | 0.238
GCGCACAC | -0.192
CACCGATG | -0.0749
GACTGCGA | -0.129
AGGAGGCA | -0.288
AGAGATAA | 0.293
CTTTACAA | 0.132

For quick reference, copied from above (series 4):
Strand | RBNS enrichment (R)
CUCUUUCUCUCUGUUUUUAAAAUAAUCUAAAGAAAGCACAUUUUACCAUUGCUGUUGGGAGGAAGCAGAGGCAGAUGGGAAAGCAGAGAGAGGAGCGCGCUUCCUUUCCU | 0.266
UUUGCCUUCAAAAAUGUGCUGCCUAGAAACAGACCUGCAUUCAACCAACUGUAAUGCAGGAUUGGACCAUGAAUGAUAUGCUAGAAUAGAAGAAAGAGAAGUGUUUUUUU | 0.528
GAAUUUAGGAGUGAUGUGUGACAUUUCUGACAUGGAGUUACCAUCCCCACAUGUAUCACAUACUGUCAUAUUCCCACAUGUAUCACACAUGUAUUGUAAAAUUUUGUAGU | 1.14
AACACCAGCUGCUAUCAAGCAAGCUUAUAUCAUGUAAAUUAUAUGAAUUAGGAGAUGUUUUGGUAAUUAUUUCAUAUAUUGUUGUUUAUUGAGAAAAGGUUGUAGGAUGU | 0.706
UUGCUGAGUGCUGGUGCAGGCUUUAUGCUUUCCACGUGAAUUAAAUCAAAUGUGAAGUUGAUCCAGAGAGAGCCUAGGUGACUGGGGAGCCAUUGAGUAGGGAAUUGUAU | 0.799
AAAACCAGUAAUUCAUUUACUCUUGCCCAAAACUAUACACUGUAUUUCUGUUAUAGUAACAAAAUAGAGUUAUGUAGAAUUGUAUGGAACUCAAAUUUAAACCAUGCUUU | 0.327
CGUUGGAAAUGUGUGCUUUUUAGUGUUUACUAAAGUGAUAAGAAAAUAAAGCAUUCAAUACACUAUAGAUUCCAAAACAUAACAUUGCACCAAAUAGAAAUGUAUAUUUU | 0.686
